Results of several laboratories.
Parts stem from different laboratories: compare values within a part only.

Study 1
Target: RING finger protein unkempt homolog, zinc fingers 1-6, SBP tag (UNK, Homo sapiens, UniProt Q9C0B0, residues 30-357)
UniProt Q9C0B0, sequence (30-357, looked up): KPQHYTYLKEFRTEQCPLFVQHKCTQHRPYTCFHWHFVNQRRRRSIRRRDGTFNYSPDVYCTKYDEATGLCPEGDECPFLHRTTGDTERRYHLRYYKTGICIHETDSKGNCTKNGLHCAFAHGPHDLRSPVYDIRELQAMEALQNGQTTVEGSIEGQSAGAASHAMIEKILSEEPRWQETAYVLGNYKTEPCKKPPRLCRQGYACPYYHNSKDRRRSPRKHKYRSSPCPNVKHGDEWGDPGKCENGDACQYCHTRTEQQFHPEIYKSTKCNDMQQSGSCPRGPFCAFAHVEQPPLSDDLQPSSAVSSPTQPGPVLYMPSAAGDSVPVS
Technique: RNA Bind-n-Seq
Form: RNA
Sample: in vitro
Tested at: 100 nM
Notes: RNA with constant flanks, vertebrate orthologous sites, ends assumed
Baseline: input RNA pool
Direction: higher = stronger binding
Sequence	bound/input enrichment [ratio]
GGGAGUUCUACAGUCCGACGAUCUUCAGGCACAACUGACUGGUUCACAGCAUUCCUUACACAGUUAUCUAUCAAAUGCAAGUGUGGUCAAUUUUCAGGAAACCAGCAGGCAGUCAUCUUUAUCCUGUAGCCCAGUUGGAGAUUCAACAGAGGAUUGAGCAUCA	0.543
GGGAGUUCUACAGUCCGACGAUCCUCUUUUCCAGGUUGGAUGUACUGGAAAAGUCAUAGGAAUUGAUCACAUUAAAGAGCUAGUAGAUGACUCAGUAAAUAAUGUCAGGAAGGACGAUCCAACACUUCUGUCUUCAGGGAGAGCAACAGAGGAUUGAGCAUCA	0.676
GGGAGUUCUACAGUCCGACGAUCAGUAGUUUUAAGCUUGUUUGCACAGUUCUUUUUUUCCAUUGGAAAUGGAACUCAUUGCCUUAGGUCCUUUUAAAUAGUGUAUUAUUAUUGUCGGGGCUGGCUCUAUGCUUGAAAAUCAGUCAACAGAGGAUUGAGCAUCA	2.02
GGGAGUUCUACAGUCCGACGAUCUGGGUUACUCCUAUUAUUAUCAAGUAGCUGGAAUUGUGAAGGUCGGAGUAGUUAGAUCUUAGCUUUUAUUCCUUAUUUUUUUUGUAUUACUCUCCAUGUGUAUAAAUUAUUGAUCAUGUUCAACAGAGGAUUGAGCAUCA	5.33
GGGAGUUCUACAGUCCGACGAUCCCCUCUGAACCCCAUAUCUUCCGUCUCAUAGUGCAGAAGUAGUCCUUUCGAUUAUAUUAUUAGUGGACUUGUUUUAAUUUUAGGGAAACUUUCAGUACAGAUAACUGUGAGCUUACAUGGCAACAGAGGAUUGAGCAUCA	2.08
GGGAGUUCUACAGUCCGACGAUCGUCCUUUCGCUCAGUCCCCGGCCAGGGUGGCGGGGCCAAGGUUUCACCUAGGAACCGCAUUUCAAAAAAAAAUUGUUUUUAAUUGUGGUACAGGAAGCGACGUUGCUGAAACAGCCUCUGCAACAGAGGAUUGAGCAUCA	0.245
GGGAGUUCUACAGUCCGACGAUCUCAGUCCCCUGGGCCGGGACAGAUUUUUUUUAACGUCUUGAAACUUAAACUCUGUGCUUGUAGGAGACCGUAACCUUUUUGUCUUUAUUAUUUCUCUAAAAACAAACAACCUCCACCUCCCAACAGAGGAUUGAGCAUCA	0.712
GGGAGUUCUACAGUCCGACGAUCUGUUGGGGGAGCCGGCGGAGUGGCGCUCUCCUCUCACUGUCCUUUCCUGGCUUCGCUUUCCUCGGGUGGGCAUGGGGUUGUGGCGCCCACUGACCCUGAGGCACGAGCGCUUGUGGUUCACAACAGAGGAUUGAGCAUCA	0.416

Study 2
Target: Histone acetyltransferase KAT6A, winged helix 1, GST fusion (KAT6A, Homo sapiens, UniProt Q92794, residues 1-85)
Technique: protein binding microarray
Form: double-stranded DNA, one strand shown
Sample: in vitro
Tested at: not given
Notes: 8-mer, flanks averaged, mean of 2 arrays, mostly near background
Baseline: not given
Direction: higher = stronger binding
Target sequence (chain): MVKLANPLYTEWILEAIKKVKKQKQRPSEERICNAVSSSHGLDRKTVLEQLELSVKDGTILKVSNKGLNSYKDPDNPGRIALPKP
Sequence	E-score
AGCGATTA	0.124
AAAATATG	-0.266
ACTTGGTC	-0.0997
TAAATGCA	-0.134
ATGTACTG	-0.164
TCCGACAA	0.0834
AGGGCGAC	0.152
CCACCAGG	-0.167
TATCGCGA	0.146
AGCAAGAA	-0.113
AATGGTGA	-0.153
CACCGAGA	-0.1
ACCCTTTA	0.0831
CCCCTAGC	-0.221
CGCCTACA	0.119
CAGCGACA	-0.0532
ACTAACCA	-0.18
AAGCCCTG	-0.121
TGCCCGCA	0.177
GGCGGAAC	0.346
ATGCTCGC	-0.0396
AGGCGTCC	0.0699
CTGAGGAA	0.0299
ATCTCCTG	-0.202
AAGCTACA	-0.0475

Study 3
Target: RNA binding protein fox-1 homolog 2, RRM domain, GST-SBP tag (RBFOX2, Homo sapiens, UniProt O43251-10, residues 100-194)
Technique: RNA Bind-n-Seq
Form: RNA
Sample: in vitro
Tested at: 365 nM
Notes: natural RNA segment, single round, ends assumed
Baseline: no-protein control
Direction: higher = stronger binding
Target sequence (chain): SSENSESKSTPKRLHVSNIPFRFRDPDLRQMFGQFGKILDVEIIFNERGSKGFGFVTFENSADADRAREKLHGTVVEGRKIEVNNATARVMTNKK
Sequence	RBNS enrichment (R)
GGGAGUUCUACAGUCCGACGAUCAAAGUAACAUCUCCAGAUGAGAAUUUGAAACAAGAAACAGAGUGUUGUAAAAGGACACCUUCACUGAAGCAAGUCGGAAAGUACAAUGAAAAUAAAUAUUUUUGGUAUUUUGGAAUUCUCGGGUGCCAA	0.386
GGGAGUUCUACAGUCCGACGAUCUACCUAUCUAAUGUGCUAUGUUUAUCAAAUCGUGUACUAAAAUGGAAAGCUAGUUUUGAGAAAUUAUUCAGAAGCCUUGUUAUUUUAAAAAUGAAAUAUUUCAAAGACUGUGGAAUUCUCGGGUGCCAA	2.48
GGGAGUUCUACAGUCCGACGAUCAGGCCCCUGUGAUUUUCUCACAUAGGUGUCUUCUCAGUUCUGUCAAAUUCCUGAUGUUCUGCAAUACUCAGAAAAUUCUUUGAAUGGCAGACUUUCUUUUGUCUGUUUCUUGGAAUUCUCGGGUGCCAA	0.26
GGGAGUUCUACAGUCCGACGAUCAUGAUAUAGCAAUCUACCUUAUAUAGAGCCUUCAGAAACUGUGAGUGGAAGUGAGUGAAGCGUAUGACUGCUGGUGAUCAGUGAAUCUGUGAGAGAAUGUGUGCAACUACUGGAAUUCUCGGGUGCCAA	3.14
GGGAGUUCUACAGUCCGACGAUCCAGACGUCUGUCCCGCUGCUCUCUCCCCAUCUCCUACCCCACAUCCUGUCUUAGCCGCAGUCUCCAGAACCCAUGAUGAACUGUGAUCUGCCGUGGUCCUGCCGUGGUCCUGGAAUUCUCGGGUGCCAA	0.834
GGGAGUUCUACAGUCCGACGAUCUGAAGGCCACUCAGAGCAUCUUGCAGUCACAGCUGUUCCUGAGCCUGAGGCCAGAAGAUUCCCUAACCCAGGACUUUGAAGCCAACCUAGGCAACAUGAUGGGGACCCUCUGGAAUUCUCGGGUGCCAA	0.405
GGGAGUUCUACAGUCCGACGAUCCCCCCUUUGAUACAAAUCGGUUGGAUUUUCAUAUGCUUCAAAGGCUUGAUCUGUGAGUCACUCUCCAGUUUGGGACAUGGGUCUGUCUGUGGCUUUGAGAAAAGGUACUUUGGAAUUCUCGGGUGCCAA	0.546
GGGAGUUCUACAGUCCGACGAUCACAUUCCUUUCUUGUGCCCUGGGCCAAAACCAAUGCUGAUGACCUUAUCAGCUUCCUGUUUCUUCCCAUACUUGCAUACACCACUGCAAAAUGUCUUAAUGCAAAUUUUGUGGAAUUCUCGGGUGCCAA	0.239

Study 4
Target: Sal-like protein 4, full length isoform B (SALL4, Homo sapiens, UniProt Q9UJQ4-2, residues 1-616)
Technique: universal PBM
Form: double-stranded DNA, one strand shown
Sample: in vitro
Tested at: not given
Notes: 8-mer, flanks averaged, mean of replicates
Direction: higher = stronger binding
Residues (chain): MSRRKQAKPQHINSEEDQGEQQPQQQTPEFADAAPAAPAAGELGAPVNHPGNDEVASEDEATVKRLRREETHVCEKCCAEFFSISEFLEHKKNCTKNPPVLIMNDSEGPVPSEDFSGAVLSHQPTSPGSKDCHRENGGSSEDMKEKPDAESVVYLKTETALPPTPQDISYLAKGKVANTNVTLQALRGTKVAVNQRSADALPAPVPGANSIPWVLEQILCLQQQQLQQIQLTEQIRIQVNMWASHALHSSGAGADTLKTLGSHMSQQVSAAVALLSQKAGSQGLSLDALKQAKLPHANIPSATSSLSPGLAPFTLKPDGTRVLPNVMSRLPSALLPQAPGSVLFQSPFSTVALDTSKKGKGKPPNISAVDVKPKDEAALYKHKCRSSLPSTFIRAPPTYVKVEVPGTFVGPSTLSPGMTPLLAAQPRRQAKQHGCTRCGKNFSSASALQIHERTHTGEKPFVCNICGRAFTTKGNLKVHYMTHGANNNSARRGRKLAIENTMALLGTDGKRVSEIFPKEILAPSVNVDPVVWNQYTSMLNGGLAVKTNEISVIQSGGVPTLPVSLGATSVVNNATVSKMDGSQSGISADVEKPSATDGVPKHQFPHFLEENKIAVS
Sequence	E-score
CAAATGGA	0.00184
CTGGTCTC	-0.239
AGAAGCTA	-0.0586
CATAAACG	0.267
GATCAGTA	0.0998
ACTCGAAC	-0.0619
GGTACACC	-0.234
ATATGCAA	0.23
AACGTAGC	0.0215
AGTCTGTC	-0.0282
CAAAGAAC	0.0857
GAACGCAA	0.11
CTCGATGA	0.06
AAGTACGG	-0.0907
ACAGCAAG	0.104
AACTACAA	0.142
ACGGACAC	-0.149
GCGCAAGC	-0.237
CTACGGGA	-0.161
ATCCATAA	0.359
GCGCCTGA	-0.235
CTGCTCGC	-0.203
CAGCCCTC	-0.256
GTCTCGGA	-0.264

Some of these lines once more (study 4):
Sequence	E-score
ACGGACAC	-0.149
GCGCAAGC	-0.237
CTACGGGA	-0.161
ATCCATAA	0.359
GCGCCTGA	-0.235
CTGCTCGC	-0.203
